Assay results collected from several papers.
Compare with care: the assays were run in different laboratories.

| Molecule | tested on | test | system | conditions | how to read | quantity | value |
| --- | --- | --- | --- | --- | --- | --- | --- |
| insulin human | – | item: NLGN1 mRNA | uninfected mouse, brain | i.p., dose not given | baseline: PBS | fold change | 1.24 |
| colistin | Klebsiella pneumoniae | – | ATCC 700603, ESBL SHV-18 | – | – | MIC | 0.25 µg/mL |
| gentamicin | Klebsiella pneumoniae | broth microdilution | ATCC 43816 acrAB overexpressor, cation-adjusted MHB | – | – | MIC | < 0.5 µg/mL |
| colistin | Klebsiella pneumoniae | broth microdilution | K4 parental, KPC-2 | – | – | MIC | 32 µg/mL |
| Polymyxin B | Klebsiella pneumoniae | broth microdilution | ATCC 13883 | 20 h | – | MIC | < 0.5 µg/mL |
| tunicamycin | Klebsiella pneumoniae | broth microdilution, EUCAST | DSM 30104 | 18 to 24 h, 37 °C | – | MIC | > 64 µg/mL |
| Polymyxin B | Klebsiella pneumoniae | DCFH-DA fluorescence | ATCC 700603 | 4 × MIC | higher = more ROS | ROS level | 595 a.u. |
| Polymyxin B | Klebsiella pneumoniae | broth microdilution | KPC-100 producing | – | – | MIC | 8 µg/mL |
| Polymyxin B | Klebsiella pneumoniae | broth microdilution, MH medium | carbapenem-resistant NCCP 15864 | 16 h, 37 °C | – | MIC | 2 µM |

For quick reference, copied from above:
| Molecule | tested on | test | system | conditions | how to read | quantity | value |
| --- | --- | --- | --- | --- | --- | --- | --- |
| insulin human | – | item: NLGN1 mRNA | uninfected mouse, brain | i.p., dose not given | baseline: PBS | fold change | 1.24 |
